Published values pooled from the literature.
Each numbered part is a random draw from the data of one study; scales do not carry over between parts.

Series 1 — technique: RNA Bind-n-Seq; molecule type: RNA; matrix: in vitro; tested at: 100 nM; relative to: input RNA pool; reading: higher = stronger binding
Target: RING finger protein unkempt homolog, zinc fingers 1-6, SBP tag (UNK, Homo sapiens, UniProt Q9C0B0, residues 30-357)
Chain of UniProt Q9C0B0 (30-357, looked up): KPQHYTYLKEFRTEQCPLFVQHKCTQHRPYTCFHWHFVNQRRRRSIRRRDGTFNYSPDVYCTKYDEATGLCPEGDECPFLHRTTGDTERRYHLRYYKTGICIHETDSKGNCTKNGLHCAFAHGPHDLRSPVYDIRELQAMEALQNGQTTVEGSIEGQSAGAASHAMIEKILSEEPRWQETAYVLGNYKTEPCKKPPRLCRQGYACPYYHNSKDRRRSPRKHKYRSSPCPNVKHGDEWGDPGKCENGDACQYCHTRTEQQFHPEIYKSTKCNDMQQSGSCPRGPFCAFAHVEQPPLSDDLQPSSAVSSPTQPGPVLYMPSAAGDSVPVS
Notes: RNA with constant flanks, vertebrate orthologous sites, ends assumed
Sequence	bound/input enrichment [ratio]
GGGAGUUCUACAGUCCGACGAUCGAGCUAAAGGAGUUAGCAUCUUUAUUUUUGUAUCAAAGAUAAAGGUUAUUUUGAAAUUAUUAAGAUUUUUACACAACUCUGAAAUCUGUUGCUUUUGUAAACCAAUCGUUUGAUCUUAGGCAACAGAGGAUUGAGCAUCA	0.519
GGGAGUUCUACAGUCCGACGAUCUUCAGGCUCAAUUGACUGUUUCACAGCAUUCCUUACACAGCUAUUUAACGAGUACAAGUGGAGUUAAUUUUCAGGAUACGUGUAGGCACUCGGCAUUAUCCUGCAGUCCAGUUGGAGAUGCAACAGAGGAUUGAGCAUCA	0.22
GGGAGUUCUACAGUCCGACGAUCUCACUUACAGAGUGGCAUCUAGUCAACAUGCAAGUAGACCAGCUCUGCUGAUUUGAAAUUUAGAUUUUUUAAUUAUGUACUGGGGACAGGUUUUUGUCGCUUUACAUUGCUUCCUAGUUUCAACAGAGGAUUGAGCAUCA	3.53
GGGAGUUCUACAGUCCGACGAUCAGCCUGCACCAGUGCUCUUCUGUGGAAGAGAUGAACUGGGGAAAACAUCUUUUUACAGACUACUUUGUUUCUAAAUUAUGACCAAAAAUAUUUUGGUAUUUCUUUAUAUAUGGAAUCUUUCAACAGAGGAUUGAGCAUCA	0.428
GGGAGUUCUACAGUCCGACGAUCCCACUUAAUCCCAUCUCUUCAGUUUCAUAGUGCUGCCGUAUUACCUUCAACUCUACCUUUAGUGAACUUAUUUUAAUUCUAGAGAAACUUCGAGUGUGGAUACUGUGAGCUAGAUGGAGACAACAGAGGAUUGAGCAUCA	2.5
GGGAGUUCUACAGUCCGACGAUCAAGAUGGUGGUUGUACAUUAUUUCAUUUAGAAAAUAUAAAAAUUCAUUUUGUUUUGAAGCUAGGUAUUAACUGGAAUAGCUAUAUAUCCCUGAGAAUGGGGCAAUUGUGCCCUUCCCUUGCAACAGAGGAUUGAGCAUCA	1.5
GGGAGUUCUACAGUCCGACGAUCGAUUUGGGCCUUGGAACAGAACCAGGAGUUAGCAACAGUAAAAGUAAGCUUGUAAAAUUAUGGCCACAUGCAGCUGCACAACAUCAGUGCCAUCACUAACAACUGUAUUAGAGUAUUUAUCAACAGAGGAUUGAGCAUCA	1.42
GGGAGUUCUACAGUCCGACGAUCAUUUAAAAUGUAUUUAGUUACACUUAAUGACUUCGUUCCUGAGUUCUUUUUUCAUCGAAGUAGCUUUCAUUUUUAUAAUUGCAGUUUUAAUAAUAUGAAUAAGUAGAAAGCUUGUGCCAGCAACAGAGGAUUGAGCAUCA	0.228
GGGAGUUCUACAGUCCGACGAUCUUGAAGCUUUGUGUUUGGCUGCACCUGCAUAAGCUGCUACAAAUAGAAUAAAGAAUUUCAUAGCCUGUAUCUAUCGUUUAGAUGCAUGGAAAAUGGGCUUUGCACACGGUGGGUUUGGAGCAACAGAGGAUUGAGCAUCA	1.54
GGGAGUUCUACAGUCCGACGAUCCUAGAGAGAGGUGACAUUUUCACAUAUCCGAAUAAAGAAAUGAAAUGCUGGAAGUCCUCUCGGGACUAAGUUUAAUUGGAGAGUUUAAAGAAGCCUCUCUUAGGUAAUUCUAAAACGAAACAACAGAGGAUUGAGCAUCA	0.314
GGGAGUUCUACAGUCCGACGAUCCCCUCUAAACCCCAUAUCUUCAGUUUCAUAGUGCAGAAAUAUUCUCUUUAAUCGUAUGAUUAGUGGACUUGUUUAAUCUUAGAGAAACUUUCAGAACUGUGAGCUUACAUGGAAAACAUACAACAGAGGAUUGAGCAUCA	0.601

Series 2 — technique: RNAcompete; molecule type: RNA; matrix: in vitro; tested at: 20 nM; notes: 7-mer, probes averaged, single round; relative to: mean of 7-mers; reading: higher = stronger binding
Target: PABPC1L2, full length, GST fusion (mouse, UniProt A0ABA7IW68)
Target sequence (chain): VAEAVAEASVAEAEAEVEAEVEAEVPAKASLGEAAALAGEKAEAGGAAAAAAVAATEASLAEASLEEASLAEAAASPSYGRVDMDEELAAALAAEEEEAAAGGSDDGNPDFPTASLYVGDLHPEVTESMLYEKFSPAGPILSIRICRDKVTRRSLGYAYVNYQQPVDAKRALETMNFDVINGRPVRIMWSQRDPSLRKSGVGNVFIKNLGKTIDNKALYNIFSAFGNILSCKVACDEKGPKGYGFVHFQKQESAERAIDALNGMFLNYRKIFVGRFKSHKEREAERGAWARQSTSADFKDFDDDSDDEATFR
Sequence	7-mer Z-score
GAUUCAA	-0.00833
UUGCGAU	-0.264
UUGGACG	-0.0844
CCAGUCC	-0.233
UCGCAGU	-0.295
AUCUCGU	-0.354
UUCUUGG	-0.231
AUCUAAG	-0.0953
CUCAUGG	-0.135
CCUGUCA	-0.266
UAAUUUU	-0.318
AUGACUG	-0.146
AAGCUUA	-0.175
AACGACC	0.122
CGGCUUC	-0.142
GGCACUC	0.0551
AAAUGGC	1.3
GCUGUCC	-0.2
GUCAUCC	-0.378
UUCCUUU	-0.229
UGUACGU	-0.291
CUGAUCA	-0.121
CGUACCG	-0.233
CGCUCGC	-0.356
CAUUGCU	-0.251

Series 3 — technique: protein-binding microarray; molecule type: double-stranded DNA, one strand shown; matrix: in vitro; tested at: 2540 nM top; notes: 60-bp whole probe; added: salmon DNA 0.4 mg/ml; relative to: random background probes; reading: higher = stronger binding; constant ends, left off below: GCCTAGCAC … GTCTTGATTCGCTTGACGCTGCTG
Target: Interferon regulatory factor 3, full length, phosphomimetic (IRF3, Homo sapiens, UniProt Q14653, residues 1-427, S386D/S396D/S398D/S402D/T404D/S405D)
Chain of UniProt Q14653 (whole entry, unmodified, looked up): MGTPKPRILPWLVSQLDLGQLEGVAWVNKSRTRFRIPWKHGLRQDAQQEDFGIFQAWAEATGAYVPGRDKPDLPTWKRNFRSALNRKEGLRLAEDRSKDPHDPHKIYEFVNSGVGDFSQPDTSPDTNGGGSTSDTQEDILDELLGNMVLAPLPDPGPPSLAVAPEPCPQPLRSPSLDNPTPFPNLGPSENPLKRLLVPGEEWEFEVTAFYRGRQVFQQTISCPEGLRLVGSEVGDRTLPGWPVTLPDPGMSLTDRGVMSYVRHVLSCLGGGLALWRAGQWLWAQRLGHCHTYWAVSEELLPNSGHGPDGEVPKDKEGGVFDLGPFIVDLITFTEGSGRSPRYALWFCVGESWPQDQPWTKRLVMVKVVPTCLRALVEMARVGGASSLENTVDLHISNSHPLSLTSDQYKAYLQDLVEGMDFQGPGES
Sequence	fitted relative affinity
TTAGGTTCGGGTTTCGGTTAGTGCTAG	3.85 z-score
GACGGTTTTGGGTTTCGGGACGTGCTA	2.65 z-score
TTAGGTTTCGACTTTCTGTTAGTGCTA	3.3 z-score
TCACTTTTGCTAATTTTACTGTGCTAG	1.11 z-score
TTAGGTTTCCTTATTCTTTAGTGCTAG	7.58 z-score
TCATTTCCATCTCTCAAACTGTGCTAG	5.33 z-score
TTAGATATCAGCTTCGATTAGTGCTAG	0.194 z-score
GACGGTTCTCTTTTCCTGACGTGCTAG	2.93 z-score
GACGCACTGGGGTATCGAGACGTGCTA	-0.576 z-score
TTTGATATCGGGACTGGATTAGTGCTA	0.147 z-score
TCAAATTTGAGTCACTGACTGTGCTAG	-0.121 z-score
TTAGGACTGATTATCCTTTAGTGCTAG	0.884 z-score
GACGGTTTCTGGACTGGGGACGTGCTA	2.31 z-score
GACGGTATCGGGAATCGGGACGTGCTA	1.25 z-score
TTAGGTTTCGGGTATCGGTAAGTGCTA	4.42 z-score
GACGGACTGGGTTGCGGGACGTGCTAG	-0.113 z-score
GTTCTTTTCTGTTGTCTGTGTGTGCTA	2.62 z-score
CAGGTTTTGCTAAGTCAACTGGTGCTA	0.314 z-score
GACGATCTCAGGCTCGAGACGTGCTAG	0.0895 z-score
GACGGTTTCCTTTCCCTGACGTGCTAG	10.4 z-score
TTTTTTGTATTTTTGATAGAGTGCTAG	1.76 z-score
GACGGTTCCCTTTTACTGACGTGCTAG	5.91 z-score
TTAGGTATCGGGTTCCGGTTAGTGCTA	2.56 z-score
TCCAGTCTGGGAGATGAAGCGGTGCTA	0.149 z-score
GGCACCCAAGCTCTTGTTTGGTGCTAG	-0.643 z-score

Series 4 — technique: RNA Bind-n-Seq; molecule type: RNA; matrix: in vitro; tested at: 365 nM; relative to: no-protein control; reading: higher = stronger binding
Target: RNA binding protein fox-1 homolog 2, RRM domain, GST-SBP tag (RBFOX2, Homo sapiens, UniProt O43251-10, residues 100-194)
Notes: natural RNA segment, single round, ends assumed
Target sequence (chain): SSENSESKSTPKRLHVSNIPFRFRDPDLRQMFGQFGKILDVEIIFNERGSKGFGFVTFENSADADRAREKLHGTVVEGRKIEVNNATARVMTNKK
Sequence	RBNS enrichment (R)
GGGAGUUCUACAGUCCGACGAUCCUGAUGGUUCAAGGGGAGGGGGGAUGUUGGCCAGGCCCCAGGGCACAGCCCUGACACAGGUGUGGCUACUGGAGGGGCCUUCAUACCUGCGGCCCCAAAGCCCCUGGGCUUGGAAUUCUCGGGUGCCAA	0.498
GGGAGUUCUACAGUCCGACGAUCAUGGGAACCGAGCUGAAGCAGAGGCUGAGUUAGGGGGCUAGAGGACAGUGCUCCUGGCCACCCAGCCUCUGCUGAGAACCAUUCCUGGGAUUAGAGCUGCCUUUCCCAGGUGGAAUUCUCGGGUGCCAA	0.359
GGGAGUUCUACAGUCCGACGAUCGUGACUUGGGUCUCAGUGCUAGGGUAUUGAGUCAGGCAGCUGGAGGGUUGUGGCCCGAGGCUGCAGUCAGAGGUAUACUUCCCAUAGUGCUUCACACAGCUCCCCUGCUUUGGAAUUCUCGGGUGCCAA	0.379
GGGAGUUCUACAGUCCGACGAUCUAUCAUCUGCUCCAGGAAGCCCCCUAGACUACCUCCUGAGUCUGGACAAAGCCUCCUGAUUCUACCUGGAUCACUCCUGUUAUGUGACAGUUAUGUGGUGGGUCCCUGCUUGGAAUUCUCGGGUGCCAA	0.382
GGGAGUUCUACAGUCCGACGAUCUCCCAUCCUGGGGCAGCACUCCCCAGAGCUGUGCCAGCAGGGGGGCUGUGCCAACCUGUUCUUAGAGUGUAGCUGUAAGGGCAGUGCCCAUGUGUACAUUCUGCCUAGAGUGGAAUUCUCGGGUGCCAA	0.177
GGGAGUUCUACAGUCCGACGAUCGGACUCCCCUACCUAUUAGUCUGGCCCCCAUGUGCUUUGCUCCCCAUGCUCAGUGGUCACUAUCCCCUCAACUCCCCACUUAGGGUUGGAAGUUCUGCCACUGUACUCUGUGGAAUUCUCGGGUGCCAA	0.756
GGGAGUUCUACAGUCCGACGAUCCGGAGGCUCGGCCGUGGGCCGGGAGGCAGUGCUGAUCCGGCUGCUCCUCCAGCCCUUCAGACGAGAUCCUGUUUCAGCUAAAUGCAGGGAAACUCAAUGUUUUUUUAAGUUGGAAUUCUCGGGUGCCAA	0.41
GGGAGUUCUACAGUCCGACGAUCUUGGGGUUGUGGAGAUGGACCCGUGACCUCGUGGAGGCCGUGUGGGGGCAGCAGCCUGGCCUGUGCCAUGGUGGGUGUCCUGGGGCCUGUGCGGAGGGAGCCACCUCACCUGGAAUUCUCGGGUGCCAA	0.259
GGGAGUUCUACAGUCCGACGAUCGUCCCUGCGGCUGUUCCCCUCCUCUGCUCUCUCCCUGGAGAGGACUGCCAGCUCUUAAGAAACAUUCCUGGUGCGGUGUCUGCAGUGCCCUUUGUGGGUGACUUCAGGCUUGGAAUUCUCGGGUGCCAA	0.5
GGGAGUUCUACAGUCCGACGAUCGGGAUUAAAGGCAUGCAUCACCACAGCCUACAGCAAUGUGUGUCUUAUAUACUAUGAGAUAGUGAGGGAGUAUAGAAGUGAAAACCAGGUGUCUGUUCUUGCCCUUAAUAUGGAAUUCUCGGGUGCCAA	0.639
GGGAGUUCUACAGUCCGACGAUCGAGGUUGAGGUGACUAAAAGGUUAGCCUCUCAUAACCCAGCCAUGGAAGUUUUGUUUACUAGGAGCCUGACUUCCCAGCUCACAAAGGGUGAAAUGAAAGCUGAAGUACAUGGAAUUCUCGGGUGCCAA	0.379
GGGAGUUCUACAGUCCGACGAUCUAAUGCUCCCAUCUCCUGAUUUCUCUGAACAGAAAACAAAAGAGAGAAUGAGGGAAAUUGCUAUUUUAUUUGUAUUCAUGAACUUGGCUGUAAUCAGUUAUGCCGUAUAGUGGAAUUCUCGGGUGCCAA	4.89

Some of these lines once more (series 3):
Sequence	fitted relative affinity
TTAGGTTTCGACTTTCTGTTAGTGCTA	3.3 z-score
GACGGTTTTGGGTTTCGGGACGTGCTA	2.65 z-score
CAGGTTTTGCTAAGTCAACTGGTGCTA	0.314 z-score
TTTGATATCGGGACTGGATTAGTGCTA	0.147 z-score
TTAGGTATCGGGTTCCGGTTAGTGCTA	2.56 z-score
TTAGGTTTCGGGTATCGGTAAGTGCTA	4.42 z-score
GACGGTTCTCTTTTCCTGACGTGCTAG	2.93 z-score
TCACTTTTGCTAATTTTACTGTGCTAG	1.11 z-score
GACGGACTGGGTTGCGGGACGTGCTAG	-0.113 z-score
TTAGATATCAGCTTCGATTAGTGCTAG	0.194 z-score
GACGATCTCAGGCTCGAGACGTGCTAG	0.0895 z-score
GACGCACTGGGGTATCGAGACGTGCTA	-0.576 z-score
